Experimental data gathered from unrelated publications.
Each line is one published result; not all experiments were run side by side. ± gives the spread as reported. Converted amounts (≈) assume the structure as drawn.

Chains of the proteins cited; added tags and fusions are not shown.
UniProt Q9Y616, whole entry: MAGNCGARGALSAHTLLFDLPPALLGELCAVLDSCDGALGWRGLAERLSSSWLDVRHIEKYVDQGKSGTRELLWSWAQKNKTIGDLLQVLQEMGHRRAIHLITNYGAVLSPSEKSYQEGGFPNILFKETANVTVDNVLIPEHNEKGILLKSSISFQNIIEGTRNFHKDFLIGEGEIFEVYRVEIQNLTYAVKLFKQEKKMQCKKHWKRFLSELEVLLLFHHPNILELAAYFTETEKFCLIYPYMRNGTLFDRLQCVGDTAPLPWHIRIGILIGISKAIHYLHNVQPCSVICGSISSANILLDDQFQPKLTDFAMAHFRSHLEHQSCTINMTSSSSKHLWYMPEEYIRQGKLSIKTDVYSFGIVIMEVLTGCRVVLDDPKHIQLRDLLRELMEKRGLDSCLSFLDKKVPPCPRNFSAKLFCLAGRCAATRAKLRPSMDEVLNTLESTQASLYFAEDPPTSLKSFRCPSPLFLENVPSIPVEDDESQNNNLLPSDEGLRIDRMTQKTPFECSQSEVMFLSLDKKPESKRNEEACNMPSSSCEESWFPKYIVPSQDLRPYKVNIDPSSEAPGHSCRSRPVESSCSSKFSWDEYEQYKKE
UniProt P08172, whole entry: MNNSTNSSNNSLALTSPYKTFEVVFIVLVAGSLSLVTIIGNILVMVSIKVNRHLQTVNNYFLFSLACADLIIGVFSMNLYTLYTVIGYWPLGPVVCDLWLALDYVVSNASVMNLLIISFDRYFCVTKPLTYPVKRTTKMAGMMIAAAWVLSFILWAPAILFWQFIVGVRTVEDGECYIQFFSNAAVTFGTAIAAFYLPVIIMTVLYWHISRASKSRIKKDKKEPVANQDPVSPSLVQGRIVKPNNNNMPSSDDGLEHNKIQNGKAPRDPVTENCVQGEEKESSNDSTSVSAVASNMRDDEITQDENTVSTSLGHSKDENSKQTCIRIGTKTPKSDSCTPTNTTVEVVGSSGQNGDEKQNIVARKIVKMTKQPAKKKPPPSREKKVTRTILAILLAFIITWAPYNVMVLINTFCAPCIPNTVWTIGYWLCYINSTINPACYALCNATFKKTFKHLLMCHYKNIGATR
UniProt Q06187, whole entry: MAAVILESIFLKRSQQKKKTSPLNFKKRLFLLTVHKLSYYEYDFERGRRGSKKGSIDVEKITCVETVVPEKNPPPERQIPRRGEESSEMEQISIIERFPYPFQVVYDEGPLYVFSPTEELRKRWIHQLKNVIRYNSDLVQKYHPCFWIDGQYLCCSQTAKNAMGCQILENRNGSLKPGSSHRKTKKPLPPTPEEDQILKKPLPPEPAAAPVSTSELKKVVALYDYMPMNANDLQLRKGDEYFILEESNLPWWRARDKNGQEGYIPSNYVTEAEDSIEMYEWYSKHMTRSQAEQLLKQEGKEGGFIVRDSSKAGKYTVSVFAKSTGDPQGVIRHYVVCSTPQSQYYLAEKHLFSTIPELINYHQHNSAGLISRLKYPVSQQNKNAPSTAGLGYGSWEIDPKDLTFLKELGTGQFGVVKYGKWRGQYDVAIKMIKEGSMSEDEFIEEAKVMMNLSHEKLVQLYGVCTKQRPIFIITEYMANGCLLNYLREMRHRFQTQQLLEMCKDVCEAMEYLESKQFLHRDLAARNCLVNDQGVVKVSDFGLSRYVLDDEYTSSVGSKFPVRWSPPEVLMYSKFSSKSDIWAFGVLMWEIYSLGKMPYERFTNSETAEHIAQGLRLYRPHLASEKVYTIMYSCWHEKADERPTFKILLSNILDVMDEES

`NNC(=O)c1ccncc1` has an MIC50 of 0.4 µM (≈ 0.0549 µg/mL) (Mycobacterium bovis; BCG Tac^r10.1, thyA H147Y missense; TA-C-resistant thyA mutant).
For `CCC(=N\O)/C(C)=C/c1ccc(F)cc1`, “MMP9 level reduction” read 64% (CS tear gas; male C57BL/6 mice, CS-induced skin injury, ear punch biopsy; intraperitoneal, dose not given, 6.5 h; relative to: vehicle).
Under “reduction in viable count”, `Cc1ccc(-c2nsc(=O)o2)s1` is recorded as 1.7 log CFU (Mycobacterium bovis BCG; 25 µM).
`CC[C@H](C)[C@H](NC(=O)[C@H](Cc1ccc(O)cc1)NC(=O)[C@H](CO)NC(=O)[C@H](CCC(=O)O)NC(=O)[C@H](CCC(=O)O)NC(=O)[C@H](CC(C)C)NC(=O)[C@H](CCCCN)NC(=O)[C@H](CCCCN)NC(=O)[C@@H](NC(=O)[C@@H](NC(=O)[C@H](CCC(=O)O)NC(=O)[C@H](CCC(=O)O)NC(=O)[C@H](CC(C)C)NC(=O)[C@H](CCCCN)NC(=O)[C@H](CCCCN)NC(=O)[C@H](CCSC)NC(=O)[C@H](CCC(=O)O)NC(=O)[C@H](Cc1ccc(O)cc1)NC(=O)[C@H](CCC(=O)O)NC(=O)[C@H](CC(C)C)NC(=O)[C@H](CC(=O)O)NC(=O)[C@H](CC(C)C)NC(=O)[C@H](CC(C)C)NC(=O)[C@@H](NC(=O)[C@@H](NC(=O)[C@H](CC(N)=O)NC(=O)[C@@H](NC(=O)[C@H](CCC(N)=O)NC(=O)[C@@H](NC(=O)[C@H](CC(C)C)NC(=O)[C@H](CO)NC(C)=O)[C@@H](C)O)[C@@H](C)CC)[C@@H](C)O)[C@@H](C)O)C(C)C)C(C)C)C(=O)N[C@@H](CC(=O)O)C(=O)N[C@@H](CC(C)C)C(=O)N[C@@H](CCCCN)C(=O)N[C@@H](CCC(=O)O)C(=O)N[C@@H](CC(C)C)C(N)=O` has an EC50 of > 20 µM (influenza A virus; viral replication; MDCK, A/Puerto Rico/8/34 H1N1; 72 h).
`O=c1ccc2nc3ccc(OCc4ccc([N+](=O)[O-])o4)cc3oc-2c1`: MIC90 “inactive” (Mycobacterium tuberculosis; mc2 6206, fbiC mutant, clofazimine-resistant).
`Cc1cccc(-c2nsc(=O)o2)c1` — result for “reduction in viable count”: 0.8 log CFU (Mycobacterium bovis BCG; 25 µM).
`CC[C@H](C)[C@H](NC(=O)[C@H](Cc1c[nH]c2ccccc12)NC(=O)[C@H](CCCCN)NC(=O)[C@H](CCCCN)NC(=O)[C@H](CC(C)C)NC(=O)[C@H](Cc1c[nH]c2ccccc12)NC(=O)[C@H](CCCCN)NC(=O)[C@@H](N)Cc1c[nH]c2ccccc12)C(=O)N[C@@H](CCCCN)C(N)=O` gave an MIC of 10 µM (Mycobacterium bovis; TMC 1012, 7H9 broth; 48 h, 37 °C, with: sodium pyruvate 40 mM).
`CCc1nc(N)nc(N)c1C#C[C@@H](C)c1cc(OC)cc(-c2ccc(C(=O)O)cc2)c1` has an MIC of 0.125 µg/mL (Mycobacterium tuberculosis; PAS-resistant folC E153G).
The MIC50 of `Nc1ccc(C(=O)O)c(O)c1` is reported as 0.4 µM (≈ 0.0613 µg/mL) (Mycobacterium bovis; BCG Tac^r2.3, fbiA L109P missense; TA-C-resistant F420 mutant).
`CCN1CCN(Cc2ccc(NC(=O)c3ccc(C)c(/C=C/c4cnc5[nH]ccc5c4OC)c3)cc2C(F)(F)F)CC1`: “log2 fold change” 0.295 (Interleukin-1 receptor-associated kinase 3, with CDC37 (IRAK3, Homo sapiens, UniProt Q9Y616); inhibitor, kinome profiling; human cells; 5 µM; relative to: vehicle).
The MIC50 of `O=[N+]([O-])c1cn2c(n1)OC[C@@H](OCc1ccc(OC(F)(F)F)cc1)C2` is reported as 0.2 µM (≈ 0.0719 µg/mL) (Mycobacterium bovis; BCG Tac^r9.1, thyA S125P missense; TA-C-resistant thyA mutant).
With `CNC(=O)CCCCC1CCSS1` (centres unmarked) the EC50 was 15 µM (Plasmodium falciparum; parasite growth; infected erythrocytes; blood stage).
`O=c1oc(-c2ccc([N+](=O)[O-])cc2)ns1`: “reduction in viable count” 0.8 log CFU (Mycobacterium bovis BCG; 25 µM).
`O=[N+]([O-])c1ccc(N2CCN(c3ccc([N+](=O)[O-])cc3[N+](=O)[O-])CC2)c([N+](=O)[O-])c1` gave an MIC of > 500 µg/mL (Pseudomonas aeruginosa; ATCC 29853).
With `Nc1ccc2nc3ccc(=O)cc-3oc2c1` the MIC90 was 4.8 µM (≈ 1.02 µg/mL) (Mycobacterium tuberculosis; mc2 6206 PA-824-resistant ddn mutant; 7 days).
`CCC(C)C1NC(=O)/C(=C(/C)O)C1=O` (centres unmarked): “onset of alkalinization” ~90 s (Arabidopsis thaliana; apo-pHusion imaging, refers to: apoplastic pH; elongating root cells; 10 µM).
`COCOc1ccc2nc3ccc(=O)c(I)c-3oc2c1` gave an MIC90 of 13 µM (≈ 4.98 µg/mL) (Mycobacterium tuberculosis; mc2 6206 PA-824-resistant ddn mutant; 7 days).
With `CCCCCCCCCCCCCCCC(=O)NCCCC[C@H](NC(=O)CCNC(=O)[C@H](CCCCN)NC(=O)[C@H](CCCCN)NC(=O)[C@H](CCC(N)=O)NC(=O)[C@@H](NC(=O)[C@H](CCC(=O)O)NC(=O)[C@H](CCC(=O)O)NC(=O)[C@@H](NC(=O)[C@H](CCCCN)NC(=O)[C@H](CCCCN)NC(=O)[C@H](CCC(N)=O)NC(=O)[C@@H](NC(=O)[C@H](CCC(=O)O)NC(=O)[C@H](CCC(=O)O)NC(=O)[C@@H](NC(=O)[C@H](CCCCN)NC(=O)[C@H](CCCCN)NC(=O)[C@H](CCC(N)=O)NC(=O)[C@@H](NC(=O)[C@H](CCC(=O)O)NC(=O)[C@H](CCC(=O)O)NC(=O)[C@@H](NC(=O)[C@H](CCCCN)NC(=O)[C@H](CCCCN)NC(=O)[C@H](CCC(N)=O)NC(=O)[C@@H](NC(=O)[C@H](CCC(=O)O)NC(=O)[C@H](CCC(=O)O)NC(=O)[C@@H](NC(=O)[C@H](CCCCN)NC(=O)[C@H](CCCCN)NC(=O)[C@H](CCC(N)=O)NC(=O)[C@@H](NC(=O)[C@H](CCC(=O)O)NC(=O)[C@H](CCC(=O)O)NC(=O)[C@@H](NC(C)=O)[C@@H](C)CC)[C@@H](C)CC)[C@@H](C)CC)[C@@H](C)CC)[C@@H](C)CC)[C@@H](C)CC)[C@@H](C)CC)[C@@H](C)CC)[C@@H](C)CC)[C@@H](C)CC)C(N)=O` the selectivity index was > 143 (influenza A virus; MDCK, A/Hong Kong/8/68 H3N2; relative to: CC50 over EC50).
`Cc1cc2c(c(=S)[nH]1)C(=O)O/C2=C\c1c[nH]c2ccc(F)cc12` has an EC50 of 17.8 ± 10.6 µM (Influenza A virus; viral replication, CPE, MTT; MDCK, A/Puerto Rico/8/34 (H1N1); 72 h).
The MIC90 of `O=c1ccc2nc3ccc(OCc4ccc([N+](=O)[O-])o4)cc3oc-2c1I` is reported as > 256 µM (Mycobacterium tuberculosis; mc2 6206 clofazimine-resistant fbiC mutant; 7 days).
`CO[C@H]1/C=C/O[C@@]2(C)Oc3c(C)c(O)c4c(O)c(c(/C=N/N5CCN(C)CC5)c(O)c4c3C2=O)NC(=O)/C(C)=C\C=C\[C@H](C)[C@H](O)[C@@H](C)[C@@H](O)[C@@H](C)[C@H](OC(C)=O)[C@@H]1C` has an MIC50 of 0.0016 µM (≈ 0.00132 µg/mL) (Mycobacterium bovis BCG; bacterial growth; thyA mutant; thyA mutant).
With `CSCOc1ccc2nc3ccc(=O)cc-3oc2c1` the MIC90 was 198 µM (≈ 54.1 µg/mL) (Mycobacterium tuberculosis; mc2 6206 clofazimine-resistant fbiC mutant; 7 days).
`CN(CC(=O)N(Cc1ccc(C2CCCCC2)cc1)c1ccc(C(=O)O)cc1)S(=O)(=O)c1c(F)c(F)c(F)c(F)c1F` has an inhibition of 66% (vesicular stomatitis virus; viral replication; VSV-eGFP; concentration not given).
`O=c1ccc2nc3ccc(OCc4ccccc4)cc3oc-2c1` gave an MIC90 of > 256 µM (Mycobacterium tuberculosis; mc2 6206 clofazimine-resistant fbiC mutant; 7 days).
The MIC of `CC1(C)CCC(Cc2cc(O)c(-c3ccccc3)c(=O)[nH]2)CC1` is reported as 0.04 to 0.16 µM (Mycobacterium tuberculosis; MDR clinical isolates).
The MIC90 of `O=c1ccc2nc3ccc(OCC4CCCCC4)cc3oc-2c1` is reported as 68 µM (≈ 21 µg/mL) (Mycobacterium tuberculosis; mc2 6206 clofazimine-resistant fbiC mutant; 7 days).
With `CCCN1CCN(c2ccc3c(c2)C2CC3CCN2C(=O)OCc2ccccc2)CC1` (centres unmarked) the Ki was 4.33 µM (Muscarinic acetylcholine receptor M2 (CHRM2, Homo sapiens, UniProt P08172); binding, radioligand binding).
`O=c1ccc2nc3ccc(OCC4CCOCC4)cc3oc-2c1` gave an MIC90 of 225 µM (≈ 70.1 µg/mL) (Mycobacterium tuberculosis; mc2 6206 clofazimine-resistant fbiC mutant; 7 days).
With `CC#C/C(=N\OC[C@H]1COCCN1)c1ccc2ncnc(Nc3ccc(OCc4cccc(F)c4)c(Cl)c3)c2c1` the inhibition was 45.1% (Tyrosine-protein kinase BTK (BTK, Homo sapiens, UniProt Q06187); kinase activity; 10 µM).

Some of these lines once more:
The MIC50 of `O=[N+]([O-])c1cn2c(n1)OC[C@@H](OCc1ccc(OC(F)(F)F)cc1)C2` is reported as 0.2 µM (≈ 0.0719 µg/mL) (Mycobacterium bovis; BCG Tac^r9.1, thyA S125P missense; TA-C-resistant thyA mutant).
`CCc1nc(N)nc(N)c1C#C[C@@H](C)c1cc(OC)cc(-c2ccc(C(=O)O)cc2)c1` has an MIC of 0.125 µg/mL (Mycobacterium tuberculosis; PAS-resistant folC E153G).
`CCC(C)C1NC(=O)/C(=C(/C)O)C1=O` (centres unmarked): “onset of alkalinization” ~90 s (Arabidopsis thaliana; apo-pHusion imaging, refers to: apoplastic pH; elongating root cells; 10 µM).
`Cc1cc2c(c(=S)[nH]1)C(=O)O/C2=C\c1c[nH]c2ccc(F)cc12` has an EC50 of 17.8 ± 10.6 µM (Influenza A virus; viral replication, CPE, MTT; MDCK, A/Puerto Rico/8/34 (H1N1); 72 h).
